{"data": "Measured values gathered from unrelated publications", "note": "A part holds a random share of what one study measured."}
{"data": "Study 1", "target": "Protein C-ets-1 (ETS1, Homo sapiens, UniProt P14921, residues 1-441, full length assumed)", "technique": "protein-binding microarray", "form": "double-stranded DNA, one strand shown", "matrix": "in vitro", "tested at": "not given", "notes": "k-mer, scored over probes, only values ≥0.25", "direction": "higher = stronger binding", "Construct (chain)": "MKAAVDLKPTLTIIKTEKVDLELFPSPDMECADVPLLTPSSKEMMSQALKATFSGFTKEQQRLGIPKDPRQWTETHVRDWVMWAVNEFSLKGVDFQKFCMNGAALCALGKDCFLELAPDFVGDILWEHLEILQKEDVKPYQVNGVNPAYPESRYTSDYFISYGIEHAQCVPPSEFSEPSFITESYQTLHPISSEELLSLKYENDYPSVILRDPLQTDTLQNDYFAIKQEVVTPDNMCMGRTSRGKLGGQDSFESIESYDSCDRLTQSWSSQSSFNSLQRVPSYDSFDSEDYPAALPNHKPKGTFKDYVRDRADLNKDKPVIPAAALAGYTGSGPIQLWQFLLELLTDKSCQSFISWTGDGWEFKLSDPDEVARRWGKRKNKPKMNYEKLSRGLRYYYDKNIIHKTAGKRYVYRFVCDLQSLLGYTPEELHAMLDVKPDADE"}
{"Sequence": "CAGAGGAA", "E-score": 0.328}
{"Sequence": "GTCCCGGA", "E-score": 0.377}
{"Sequence": "GGAACTCA", "E-score": 0.282}
{"Sequence": "CCGGATAG", "E-score": 0.439}
{"Sequence": "CCGGTCCC", "E-score": 0.296}
{"Sequence": "CACGCCGG", "E-score": 0.254}
{"Sequence": "GCCCGGAC", "E-score": 0.341}
{"Sequence": "AACTTCCG", "E-score": 0.488}
{"Sequence": "ACGACCGG", "E-score": 0.325}
{"Sequence": "TTCGGAAA", "E-score": 0.259}
{"Sequence": "CGGATAAA", "E-score": 0.298}
{"Sequence": "GATGTTGA", "E-score": 0.279}
{"Sequence": "AGGGAAAC", "E-score": 0.346}
{"Sequence": "CGGATACA", "E-score": 0.434}
{"Sequence": "GGATGCCC", "E-score": 0.394}
{"Sequence": "ATCCGCCG", "E-score": 0.402}
{"Sequence": "CTCCATCC", "E-score": 0.291}
{"Sequence": "GAGACGGA", "E-score": 0.318}
{"data": "Study 2", "target": "PABPC1L2, full length, GST fusion (mouse, UniProt A0ABA7IW68)", "technique": "RNAcompete", "form": "RNA", "matrix": "in vitro", "tested at": "20 nM", "notes": "7-mer, probes averaged, single round", "reference": "mean of 7-mers", "direction": "higher = stronger binding", "Residues (chain)": "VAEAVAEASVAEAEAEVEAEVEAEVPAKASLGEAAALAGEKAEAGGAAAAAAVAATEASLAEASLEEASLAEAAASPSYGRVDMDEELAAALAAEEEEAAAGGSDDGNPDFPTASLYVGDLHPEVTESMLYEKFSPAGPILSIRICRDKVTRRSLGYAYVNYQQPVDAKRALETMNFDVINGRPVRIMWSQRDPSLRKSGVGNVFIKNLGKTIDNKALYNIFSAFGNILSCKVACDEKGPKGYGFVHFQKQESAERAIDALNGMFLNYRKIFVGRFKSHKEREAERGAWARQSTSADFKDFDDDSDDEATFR"}
{"Sequence": "CUAGACC", "7-mer Z-score": -0.021}
{"Sequence": "CGACGUC", "7-mer Z-score": -0.168}
{"Sequence": "GAUAUUG", "7-mer Z-score": -0.273}
{"Sequence": "CCCGCUC", "7-mer Z-score": -0.441}
{"Sequence": "AAGCGUG", "7-mer Z-score": 0.117}
{"Sequence": "AUAAAUA", "7-mer Z-score": 4.22}
{"Sequence": "UAUAACU", "7-mer Z-score": -0.144}
{"Sequence": "ACGCGCC", "7-mer Z-score": -0.249}
{"Sequence": "GCAAAGU", "7-mer Z-score": 0.0189}
{"Sequence": "GGAGGUC", "7-mer Z-score": 0.215}
{"Sequence": "ACGAUAU", "7-mer Z-score": 0.017}
{"Sequence": "GGUCCAU", "7-mer Z-score": -0.2}
{"Sequence": "AACAUCU", "7-mer Z-score": 0.0642}
{"Sequence": "AUGGCCU", "7-mer Z-score": -0.079}
{"Sequence": "ACCAAGC", "7-mer Z-score": -0.126}
{"Sequence": "CUAGCUA", "7-mer Z-score": -0.34}
{"Sequence": "UAUUGUC", "7-mer Z-score": -0.325}
{"Sequence": "GCAAGCC", "7-mer Z-score": -0.22}
{"Sequence": "GUAGCGG", "7-mer Z-score": -0.101}
{"Sequence": "AAGCUAC", "7-mer Z-score": 0.115}
{"Sequence": "GUAAGGU", "7-mer Z-score": -0.05}
{"Sequence": "UGCGCUC", "7-mer Z-score": -0.229}
{"Sequence": "UUUAAAC", "7-mer Z-score": 0.0642}
{"Sequence": "CGCUGGC", "7-mer Z-score": -0.367}
{"Sequence": "AAUGGCA", "7-mer Z-score": 0.298}
{"data": "Study 3", "target": "Phosphate system positive regulatory protein PHO4, full length, GST-tagged (PHO4, Saccharomyces cerevisiae, UniProt P07270, residues 1-312)", "technique": "competition protein-binding microarray", "form": "double-stranded DNA, one strand shown", "matrix": "in vitro", "tested at": "2 µM", "notes": "whole 60-bp probe, lowest competitor level", "added": "Cbf1 competitor, 0.05 µM", "direction": "higher = stronger binding", "constant ends, left off below": "… GTCTTGATTCGCTTGACGCTGCTG", "Target sequence (chain)": "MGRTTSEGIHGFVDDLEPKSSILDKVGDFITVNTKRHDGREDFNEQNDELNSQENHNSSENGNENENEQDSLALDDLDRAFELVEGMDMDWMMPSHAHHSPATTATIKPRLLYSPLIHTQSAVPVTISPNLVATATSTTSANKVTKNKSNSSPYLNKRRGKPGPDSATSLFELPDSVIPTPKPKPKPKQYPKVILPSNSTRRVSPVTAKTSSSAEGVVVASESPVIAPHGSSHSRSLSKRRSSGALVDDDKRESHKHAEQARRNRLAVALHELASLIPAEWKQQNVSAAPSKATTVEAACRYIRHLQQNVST"}
{"Sequence": "AAAGCGGTAATTTGTACGGTGGGTGCAGATATCTAT", "fluorescence intensity [a.u.]": 4160}
{"Sequence": "TGGACCCTTGTCCGTCACGTGAGGAAAAATACTATT", "fluorescence intensity [a.u.]": 12100}
{"Sequence": "GCAAAAACACCGCAACTCGTGGTGACGGGGTAAGAA", "fluorescence intensity [a.u.]": 9330}
{"Sequence": "CTTCTGTAAATTTGGTCGGTGGGTGGACGCGCCCCG", "fluorescence intensity [a.u.]": 3590}
{"Sequence": "TGCGCAACAACTTTTCACGTGTCTTTATGTCTAGAA", "fluorescence intensity [a.u.]": 14200}
{"Sequence": "CCAAGGATTGGGTGGCATGTGATATCCAGTCTTGAG", "fluorescence intensity [a.u.]": 8160}
{"Sequence": "AACGAACCCGCAAGACGCGTGCAAAGCTGGTTAGAT", "fluorescence intensity [a.u.]": 10700}
{"Sequence": "TAATGGTATAGGCGTCACCTGCCGAAACAAAAATCG", "fluorescence intensity [a.u.]": 4050}
{"Sequence": "CTTTCCCGATCTTGAGAGGTGGGTGTAGCACATTTG", "fluorescence intensity [a.u.]": 4010}
{"Sequence": "GTAGTTTGCATTTTGCACGTTTCCCTTTCCATGCAA", "fluorescence intensity [a.u.]": 11700}
{"Sequence": "TCGGTTTCAAATTGTCATGCTCCGGAGTAATTGACT", "fluorescence intensity [a.u.]": 5100}
{"Sequence": "GTCTTGTCTCATTGATCAGTGGGTGTCCCCACTTCA", "fluorescence intensity [a.u.]": 4000}
{"Sequence": "ATATCTATGGACGTCTTCGTGCCAGAAAGCGGCGAA", "fluorescence intensity [a.u.]": 5210}
{"Sequence": "CTCGTTACTACCCATCACGTGTCGGATCCCTCGCGA", "fluorescence intensity [a.u.]": 18800}
{"Sequence": "TTACTGCGATTATCGCACGGGTGTGGAGGTGTCGCT", "fluorescence intensity [a.u.]": 8420}
{"Sequence": "CGGGGTTAAGTTTGACGGGTGGGTGGCTTGCAGCAG", "fluorescence intensity [a.u.]": 5310}
{"Sequence": "TTGCGGACGGACCATCACGCAAGTTTTTTAACGCGA", "fluorescence intensity [a.u.]": 3600}
{"Sequence": "TTGAATACATAATCGCACGTGATGGAACAATAAAGA", "fluorescence intensity [a.u.]": 18600}
{"data": "Study 4", "target": "Sal-like protein 4, full length isoform B (SALL4, Homo sapiens, UniProt Q9UJQ4-2, residues 1-616)", "technique": "universal PBM", "form": "double-stranded DNA, one strand shown", "matrix": "in vitro", "tested at": "not given", "notes": "8-mer, flanks averaged, mean of replicates", "direction": "higher = stronger binding"}
{"Sequence": "CTACGACA", "E-score": 0.0722}
{"Sequence": "TGGCGCCA", "E-score": -0.353}
{"Sequence": "CCCATCGC", "E-score": -0.25}
{"Sequence": "ACCTTCTA", "E-score": 0.14}
{"Sequence": "GCAATAAA", "E-score": 0.283}
{"Sequence": "AGCTGTCC", "E-score": -0.183}
{"Sequence": "AGAGAAAT", "E-score": 0.148}
{"Sequence": "CAACATTA", "E-score": 0.248}
{"Sequence": "AGACCAGA", "E-score": 0.125}
{"Sequence": "CTTCGGAA", "E-score": 0.0756}
{"Sequence": "GCGTGCAA", "E-score": -0.152}
{"Sequence": "AGATTATA", "E-score": 0.244}
{"Sequence": "GAATTTTA", "E-score": 0.306}
{"Sequence": "AGGATCAC", "E-score": -0.0888}
{"Sequence": "AACTTGTA", "E-score": 0.235}
{"Sequence": "ACTAGTGA", "E-score": 0.0935}
{"Sequence": "GCGCCGCC", "E-score": -0.341}
{"Sequence": "AGCTCGCC", "E-score": -0.306}
{"Sequence": "GACCAAGC", "E-score": -0.0856}
{"Sequence": "CGCTGGCA", "E-score": -0.233}
{"Sequence": "AAACCAAT", "E-score": 0.232}
{"Sequence": "AAGTTACT", "E-score": 0.131}
{"Sequence": "ACTTCTTC", "E-score": 0.00882}
{"Sequence": "AGAATAAA", "E-score": 0.314}
{"Sequence": "GATTTGCA", "E-score": 0.141}
{"data": "Study 5", "Molecule": "PhoQ, residues 284 288 289 292 302 303 QWQEDG", "technique": "Sort-seq", "measured": "YFP reporter", "matrix": "E. coli", "notes": "PhoQ-PhoP variant library", "added": "10 µM Mg2+", "reference": "high Mg2+ state", "direction": "higher = stronger signaling"}
{"target": "PhoP, residues 12 14 15 18 19 TQCLL (Escherichia coli, UniProt P23836)", "fold induction": 3.92}
{"target": "PhoP, residues 12 14 15 18 19 ICWRQ (Escherichia coli, UniProt P23836)", "fold induction": 2.87}
{"target": "PhoP, residues 12 14 15 18 19 VHTVL (Escherichia coli, UniProt P23836)", "fold induction": 13}
{"data": "Study 6", "target": "Histone acetyltransferase KAT6A, winged helix 1, GST fusion (KAT6A, Homo sapiens, UniProt Q92794, residues 1-85)", "technique": "protein binding microarray", "form": "double-stranded DNA, one strand shown", "matrix": "in vitro", "tested at": "not given", "notes": "8-mer, flanks averaged, mean of 2 arrays, mostly near background", "reference": "not given", "direction": "higher = stronger binding", "Construct (chain)": "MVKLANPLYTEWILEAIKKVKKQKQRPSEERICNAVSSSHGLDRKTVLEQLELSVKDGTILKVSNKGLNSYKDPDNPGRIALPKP"}
{"Sequence": "ACCAGAGG", "E-score": -0.223}
{"Sequence": "AAGGCAGC", "E-score": -0.0514}
{"Sequence": "ATGATTCC", "E-score": 0.0396}
{"Sequence": "AAGTATAC", "E-score": -0.0659}
{"Sequence": "ATCGCCCG", "E-score": 0.316}
{"Sequence": "TGGCAGAA", "E-score": -0.119}
{"Sequence": "CTCGATAC", "E-score": 0.0104}
{"Sequence": "CTCCCGGC", "E-score": 0.328}
{"Sequence": "CAGCGACG", "E-score": 0.294}
{"Sequence": "ACATACCT", "E-score": -0.198}
{"Sequence": "CCCCGCCG", "E-score": 0.457}
{"Sequence": "GCTGCGCC", "E-score": 0.229}
{"Sequence": "AGCCCAGG", "E-score": -0.242}
{"Sequence": "TACCTCTA", "E-score": -0.176}
{"Sequence": "CTGGTCAC", "E-score": -0.16}
{"Sequence": "GTCTGAAA", "E-score": -0.168}
{"Sequence": "GCGACCCC", "E-score": 0.186}
{"Sequence": "CATTCCTC", "E-score": -0.152}
{"Sequence": "ACGCCAAT", "E-score": -0.0399}
{"Sequence": "ATTTCGGA", "E-score": 0.105}
{"Sequence": "GTGTCTCA", "E-score": -0.138}
{"Sequence": "AATTAATG", "E-score": 0.0168}
{"Sequence": "CGATACAA", "E-score": -0.0852}
{"Sequence": "TACGTCCA", "E-score": -0.134}
{"Sequence": "ACGAGAAT", "E-score": -0.163}
{"note": "For quick reference, copied from above (study 6):"}
{"Sequence": "CTCCCGGC", "E-score": 0.328}
{"Sequence": "CAGCGACG", "E-score": 0.294}
{"Sequence": "ACATACCT", "E-score": -0.198}
{"Sequence": "CCCCGCCG", "E-score": 0.457}
{"Sequence": "GCTGCGCC", "E-score": 0.229}
{"Sequence": "AGCCCAGG", "E-score": -0.242}
